Assay results pooled from the literature.
Protocols differ between the studies behind these lines. Values joined by “and” are separate records of one study, mostly repeats; a detail may differ. Numbers after ± are the reported error.
Sequence of UniProt O43293 (whole entry, looked up): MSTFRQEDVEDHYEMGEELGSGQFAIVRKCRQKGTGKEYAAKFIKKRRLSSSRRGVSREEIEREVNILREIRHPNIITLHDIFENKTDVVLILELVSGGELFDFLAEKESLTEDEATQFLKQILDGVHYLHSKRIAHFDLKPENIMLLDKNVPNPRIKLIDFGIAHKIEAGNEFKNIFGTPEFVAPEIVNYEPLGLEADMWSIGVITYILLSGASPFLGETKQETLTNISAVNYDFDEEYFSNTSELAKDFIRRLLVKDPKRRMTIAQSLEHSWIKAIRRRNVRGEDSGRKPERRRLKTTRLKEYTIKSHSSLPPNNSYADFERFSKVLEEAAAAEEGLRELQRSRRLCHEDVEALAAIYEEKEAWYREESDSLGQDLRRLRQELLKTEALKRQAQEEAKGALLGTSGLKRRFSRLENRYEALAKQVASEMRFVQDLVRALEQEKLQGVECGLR

SMILES | target or system | test | test system | setting | scale | endpoint | result
O=C(O)C(F)(F)C(F)(F)C(F)(F)C(F)(F)F | hTERT-RPTEC-OAT1 |  |  | concentration not given, Transwell, apical-to-basolateral addition |  | LDH release | 15.7 mU/mL and 12.5 mU/mL and 17.1 mU/mL and 15.8 mU/mL
CC(=O)OC[C@H]1O[C@@H](Oc2cc(O)cc3cc4oc(C)cc(=O)c4c(O)c23)[C@H](O)[C@@H](O)[C@@H]1O | HK-2 co-cultured with HepaRG | MTT |  | 133.33 µM, 24 h | reference: untreated control | cell viability | 129 ± 7.26%
CC[C@H](C)[C@H](NC(=O)[C@H](CCCNC(=N)N)NC(=O)[C@H](CCC(N)=O)NC(=O)[C@@H](NC(=O)[C@@H](NC(=O)[C@H](CCCNC(=N)N)NC(=O)[C@H](CCCCN)NC(=O)[C@H](Cc1ccccc1)NC(=O)CN)[C@@H](C)CC)C(C)C)C(=O)N[C@@H](CCCCN)C(=O)N[C@@H](CC(=O)O)C(=O)N[C@@H](Cc1ccccc1)C(=O)N[C@@H](CC(C)C)C(=O)N[C@@H](CCCNC(=N)N)C(=O)N[C@@H](CC(N)=O)C(=O)N[C@@H](CC(C)C)C(=O)N[C@H](C(N)=O)C(C)C | HEK293 | cell viability, MTS |  | serum-free |  | LC50 | 35 µM
Cc1cc(C(C)(C)c2ccc(O)c(C)c2)ccc1O | HepG2 spheroids, dissociated | annexin V-FITC/PI flow cytometry |  | 1 µM, 24 h |  | late apoptotic cells | 7.25 ± 1.57%
COc1ccc2c(c1OC)C(=O)c1c(cc(C)c(O)c1OC)C2=O | HepaRG co-cultured with HK-2 | MTT |  | 16.67 µM, 48 h | reference: untreated control | cell viability | 87.7 ± 4.5%
O=c1[nH]c(=O)n([C@H]2C[C@H](O)[C@@H](CO)O2)cc1/C=C/Br | HEL | cell morphology |  |  |  | minimum cytotoxic concentration | > 300 µM
O=C(Nc1cccc(OS(=O)(=O)c2ccc(Cl)cc2)c1)c1ccc2ncccc2c1 | HEK293T | MTT |  | 100 µM, 24 h |  | viability | 82.3 ± 1.09%
CC[C@H](C)[C@H](NC(=O)[C@H](CCCCN)NC(=O)[C@@H]1CCCN1C(=O)[C@H](CCCNC(=N)N)NC(=O)[C@H](Cc1ccc(O)cc1)NC(=O)[C@H](CCCNC(=N)N)NC(=O)[C@H](CCCNC(=N)N)NC(=O)[C@@H](NC(=O)[C@H](CCCNC(=N)N)NC(=O)[C@H](CCCNC(=N)N)NC(=O)[C@H](CC(C)C)NC(=O)[C@H](Cc1ccccc1)NC(=O)[C@H](CCCNC(=N)N)NC(=O)[C@H](CO)NC(=O)[C@H](Cc1ccccc1)NC(=O)[C@@H](N)CCCNC(=N)N)C(C)C)C(=O)N[C@@H](CO)C(=O)N[C@@H](Cc1ccccc1)C(=O)N[C@@H](CC(N)=O)C(=O)N[C@@H](CC(C)C)C(=O)N[C@@H](CCC(=O)O)C(=O)N1CCC[C@H]1C(=O)N[C@@H](Cc1ccccc1)C(=O)N[C@@H](Cc1ccccc1)C(=O)N[C@@H](CCCCN)C(=O)N[C@@H](Cc1ccccc1)C(=O)O | rat erythrocytes | haemolysis |  | 1 h, 37 °C, 2% erythrocytes in PBS |  | HC50 | 2.98 log10 µg/mL
Oc1ccc(C(c2ccc(O)cc2)(C(F)(F)F)C(F)(F)F)cc1 | HepG2 spheroids, dissociated | annexin V-FITC/PI flow cytometry |  | 0.01 µM, 96 h |  | early apoptotic cells | 4.41 ± 3.07%
C[C@@H]1O[C@@H](O[C@H]2C[C@@H](O)[C@]3(CO)[C@H]4[C@H](O)C[C@]5(C)[C@@H](C6=CC(=O)OC6)CC[C@]5(O)[C@@H]4CC[C@]3(O)C2)[C@H](O)[C@H](O)[C@H]1O | HEK293T | ATP content |  | 25 µM, 6 h |  | toxicity | not toxic
O=C1c2ccccc2C(=O)c2ccccc21 | HepaRG co-cultured with HK-2 | MTT |  | 16.67 µM, 24 h | reference: untreated control | cell viability | 85.5 ± 10.6%
N#C[C@H](C[C@@H]1CCCNC1=O)NC(=O)[C@H](CC1CC1)NC(=O)c1cc2cccc(Cl)c2[nH]1 | cryopreserved human hepatocytes | item: CYP2B6 |  | 10 µM, 72 h | reference: vehicle | mRNA level | ≤ 8.1 fold
O=c1ccc2ccccc2o1 | HepaRG 3D spheroids | spheroid size |  | 168 h, high-content imaging |  | point of departure | 497 µM
CC[C@H](C)[C@H](N)C(=O)N[C@@H](CCCNC(=N)N)C(=O)N[C@H](C(=O)N[C@@H](Cc1c[nH]c2ccccc12)C(=O)N[C@@H](Cc1c[nH]c2ccccc12)C(=O)N[C@@H](CCCCN)C(=O)N[C@H](C(=O)N[C@H](C(=O)N[C@@H](CCCNC(=N)N)C(=O)N[C@@H](CCCCN)C(=O)N[C@@H](Cc1c[nH]c2ccccc12)C(=O)N[C@@H](CCCCN)C(=O)N[C@@H](C)C(=O)N[C@H](C(=O)N[C@@H](Cc1c[nH]c2ccccc12)C(=O)N[C@@H](Cc1c[nH]cn1)C(N)=O)[C@@H](C)CC)C(C)C)[C@@H](C)CC)C(C)C | rat erythrocytes |  |  | 200 µM, 60 min, 37 °C |  | hemolysis | 94.8 ± 2.2%
CC(C)C[C@H](NC(=O)[C@@H](NC(=O)[C@H](CCCNC(=N)N)NC(=O)[C@H](CCCCN)NC(=O)[C@H](CCCCN)NC(=O)CNC(=O)CNC(=O)CNC(=O)c1ccc2c(c1)C(=O)OC21c2ccc(O)cc2Oc2cc(O)ccc21)[C@@H](C)O)C(=O)N[C@@H](CCCNC(=N)N)C(=O)N[C@@H](CCCCN)C(=O)N[C@@H](CC(N)=O)C(=O)N[C@@H](CC(=O)O)C(=O)N[C@@H](CCCNC(=N)N)C(=O)N[C@@H](CCCCN)C(=O)N[C@@H](CCCCN)C(=O)N[C@@H](CCCNC(=N)N)C(=O)N[C@@H](CS)C(N)=O | hCMEC/D3 monolayers | BBB permeability, Transwell, item: CF-labelled compound | EGM-2 medium | concentration not given, 1 h, apical to basal | reference: fluorescence added apically | transport ratio | 1.9%
C[C@H]1CN(c2n[nH]c3nc(N[C@H]4CC[C@H](NS(=O)(=O)CCC(F)(F)F)CC4)ncc23)CCO1 | Death-associated protein kinase 3 (DAPK3, Homo sapiens, UniProt O43293) | inhibitor, Kinobeads competition profiling |  | 0.032 µM | reference: vehicle | relative abundance | 1.02
O=C(O)C(F)(F)C(F)(F)C(F)(F)C(F)(F)C(F)(F)C(F)(F)C(F)(F)C(F)(F)C(F)(F)C(F)(F)F | hTERT-RPTEC-OAT1 |  |  | concentration not given, 96-well plate |  | LDH release | 3.2 mU/mL and 4.62 mU/mL and 3.86 mU/mL and 4.08 mU/mL
CN(N=O)[C@H]1CC[C@@H](c2ccc(Cl)c(Cl)c2)c2ccccc21 | TK6 expressing CYP2B6 | micronucleus induction |  | 24 h, without S9 |  | LOAEL | < 1 µM
O=S(=O)(c1ccc(O)cc1)c1ccc(O)cc1 | HepG2 spheroids, dissociated | annexin V-FITC/PI flow cytometry |  | 0.10 µM, 96 h |  | early apoptotic cells | 6.41 ± 5.28%
Nc1nc(O)c2ncn(COC(CO)CO)c2n1 | HEL | cell morphology |  |  |  | minimal cytotoxic concentration | > 100 µM
Cc1cc2c(c(O)c1O)C(=O)c1c(O)cc(O)cc1C2=O | HepaRG co-cultured with HK-2 | MTT |  | 16.67 µM, 24 h | reference: untreated control | cell viability | 61.2 ± 8.8%
CC(C)NCC(O)COc1ccc(CC(N)=O)cc1 (stereo not drawn) | MCF7 AREc32 cells | cell viability, IncuCyte imaging |  | 24 h, freely dissolved concentration |  | IC10 | 4730 µM
O=S(=O)(O)C(F)(F)C(F)(F)C(F)(F)C(F)(F)F | hTERT-RPTEC-OAT1 |  |  | concentration not given, Transwell, apical-to-basolateral addition |  | LDH release | 17.2 mU/mL and 61.4 mU/mL and 10.5 mU/mL and 59.8 mU/mL
Cc1cccc(C)c1N(Cn1cccn1)C(=O)CCl | MCF7 AREc32 cells | cell viability, IncuCyte imaging |  | 24 h, freely dissolved concentration |  | IC10 | 112 µM
CC[C@H](C)[C@H](NC(=O)[C@H](CCCCN)NC(=O)[C@H](CC(N)=O)NC(=O)[C@H](CCCNC(=N)N)NC(=O)[C@H](C)NC(=O)[C@H](CC(C)C)NC(=O)[C@H](CC(C)C)NC(=O)[C@H](CCSC)NC(=O)[C@H](Cc1c[nH]cn1)NC(=O)[C@H](CC(C)C)NC(=O)[C@@H](N)CC(C)C)C(=O)N[C@@H](CCCNC(=N)N)C(=O)N[C@H](C(=O)N[C@@H](CC(C)C)C(=O)N[C@@H](CCCCN)C(=O)N[C@@H](CC(N)=O)C(=O)N[C@@H](CC(N)=O)C(=O)N[C@@H](CCSC)C(=O)N[C@@H](Cc1ccccc1)C(=O)N[C@@H](CO)C(=O)N[C@@H](CCCCN)C(=O)N[C@@H](Cc1ccccc1)C(=O)N[C@@H](CCCCN)C(=O)N[C@@H](CCCCN)C(=O)N[C@@H](CC(C)C)C(=O)N[C@@H](CCCCN)C(=O)N[C@@H](CO)C(=O)N[C@@H](CC(C)C)C(=O)O)[C@@H](C)O | HaCaT | cell viability, MTT |  | 24 h |  | CC50 | 1200 µM
CN(C)CCOc1ccc(/C(=C(/CCCl)c2ccccc2)c2ccccc2)cc1 | MRC-5, mock-infected | nuclei count |  | 96 h |  | LD50 | 17.4 µM
CC(c1ccccc1)(c1ccc(O)cc1)c1ccc(O)cc1 | HepG2 spheroids, dissociated | annexin V-FITC/PI flow cytometry |  | 0.01 µM, 96 h |  | viable cells | 36.9 ± 11.9%
O=C(O)C(F)(F)C(F)(F)C(F)(F)C(F)(F)C(F)(F)F | hTERT-RPTEC-OAT1 |  |  | concentration not given, Transwell, basolateral-to-apical addition |  | LDH release | 19.2 mU/mL and 19.9 mU/mL and 15.1 mU/mL and 21.8 mU/mL
CC1=C(O)C(=O)C=C2C1=CC=C1[C@@]2(C)CC[C@@]2(C)[C@@H]3C[C@](C)(C(=O)O)CC[C@]3(C)CC[C@]12C | COS-7 |  |  | 3 µM, 24 h, 0.1% DMSO, unit not given | reference: vehicle control | necrotic cells | 0.34 ± 0.24
CC(C)C[C@H](NC(=O)[C@H](CCCNC(=N)N)NC(=O)CNC(=O)CNC(=O)CNC(=O)c1ccc2c(c1)C(=O)OC21c2ccc(O)cc2Oc2cc(O)ccc21)C(=O)N[C@@H](CO)C(=O)N[C@@H](CO)C(=O)N[C@H](C(=O)N[C@@H](CC(=O)O)C(=O)N[C@@H](CO)C(=O)N[C@@H](CC(=O)O)C(=O)N[C@@H](CC(C)C)C(=O)N[C@@H](CO)C(=O)NCC(=O)N[C@@H](CS)C(N)=O)C(C)C | hCMEC/D3 monolayers | BBB permeability, Transwell, item: CF-labelled compound | EGM-2 medium | concentration not given, 1 h, apical to basal | reference: fluorescence added apically | transport ratio | 3%

Excerpt of the above:
SMILES | target or system | test | test system | setting | scale | endpoint | result
C[C@H]1CN(c2n[nH]c3nc(N[C@H]4CC[C@H](NS(=O)(=O)CCC(F)(F)F)CC4)ncc23)CCO1 | Death-associated protein kinase 3 (DAPK3, Homo sapiens, UniProt O43293) | inhibitor, Kinobeads competition profiling |  | 0.032 µM | reference: vehicle | relative abundance | 1.02
O=C(Nc1cccc(OS(=O)(=O)c2ccc(Cl)cc2)c1)c1ccc2ncccc2c1 | HEK293T | MTT |  | 100 µM, 24 h |  | viability | 82.3 ± 1.09%
O=S(=O)(c1ccc(O)cc1)c1ccc(O)cc1 | HepG2 spheroids, dissociated | annexin V-FITC/PI flow cytometry |  | 0.10 µM, 96 h |  | early apoptotic cells | 6.41 ± 5.28%
CN(C)CCOc1ccc(/C(=C(/CCCl)c2ccccc2)c2ccccc2)cc1 | MRC-5, mock-infected | nuclei count |  | 96 h |  | LD50 | 17.4 µM
